Published values pooled from the literature.
A part holds a random share of what one study measured. Substitutions count along the parent as printed.

Series 1
Target: Sox, HMG box (Pigoraptor chileana)
Technique: Spec-seq
Molecule type: double-stranded DNA, one strand shown
Sample: in vitro
Tested at: not given
Setting: whole probe, mean of replicates
Baseline: not given
Reading: lower = stronger binding
Measurement: relative binding energy
All sequences stand within: GAGTCGTCTCGTCAGCAC … CCGTAGAGCACTCAGGTC
Construct (chain): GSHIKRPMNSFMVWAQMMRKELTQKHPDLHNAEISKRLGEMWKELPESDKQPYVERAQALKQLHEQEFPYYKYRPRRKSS
GAATGTT: 0.369 ln ratio
CATTGCC: 0.257 ln ratio
CATGAAT: 0.347 ln ratio
TCCAGTT: 0.42 ln ratio
CATAACG: -0.157 ln ratio
CATGTAC: 0.461 ln ratio
CATTGTA: -2.54 ln ratio
ACAGGTT: -0.0314 ln ratio
CATATCT: 0.435 ln ratio
CATTTCT: 0.513 ln ratio
CATAAGT: -0.291 ln ratio
CGTCGTT: 1.21 ln ratio
CATGACC: 0.613 ln ratio
TTGAGTT: 0.666 ln ratio

Series 2
Target: Prothrombin, mature alpha-thrombin (F2, Homo sapiens, UniProt P00734)
Technique: aptamer microarray, sandwich
Molecule type: DNA with 2'F-ANA
Sample: in vitro
Tested at: 200 nM
Setting: whole 15-mer aptamer, many near background
Together with: Cy3 exosite-II aptamer, 400 nM
Reading: higher = stronger binding
Measurement: mean fluorescence intensity
Sequence: GGTTGGTGTGGTTGG
2'F-ANA at 3 4 5 6 8 10 14: 44.1 a.u.
2'F-ANA at 1 3 9 11 13 14 15: 76.5 a.u.
2'F-ANA at 2 7 8 10 11 13 14: 86.9 a.u.
2'F-ANA at 1 2 3 5 6 7 10: 46.2 a.u.
2'F-ANA at 1 2 4 6 7 8 10 12: 71.7 a.u.
2'F-ANA at 2 3 9 10 11 12 15: 387 a.u.
2'F-ANA at 2 4 6 9 10 11 12: 104 a.u.
2'F-ANA at 2 4 5 6 8 9 10 12 15: 54.1 a.u.
2'F-ANA at 1 3 8 10 15: 86.6 a.u.
2'F-ANA at 3 4 5 6 7 8 9 12 13: 122 a.u.
2'F-ANA at 1 4 5 6 8 9 10 11 12 13 14: 69.4 a.u.
2'F-ANA at 2 4 5 8 10 11 13 15: 44.8 a.u.
2'F-ANA at 1 3 5 8 9 13 14 15: 52.3 a.u.
2'F-ANA at 2 3 5 6 9 14 15: 48.1 a.u.
2'F-ANA at 1 2 8 9 11 12 15: 285 a.u.
2'F-ANA at 4 7 8 10 11 13 15: 70.7 a.u.
2'F-ANA at 1 3 6 8 10 11 12 13 15: 91.2 a.u.
2'F-ANA at 2 5 7 10 11 13 15: 46.6 a.u.
2'F-ANA at 4 7 8 11 12 15: 551 a.u.
2'F-ANA at 4 5 8 9 10 11 13 15: 111 a.u.
2'F-ANA at 5 6 7 9 11: 63.7 a.u.
2'F-ANA at 1 3 5 7 10 11 13: 44.3 a.u.

Series 3
Target: ABI1, truncated, D143A, DHFR fusion (Arabidopsis thaliana)
Technique: DHFR PCA, deep sequencing
Sample: yeast
Setting: methotrexate growth selection, single substitutions
Together with: (+)-ABA 1.4 µM
Baseline: wild-type fitted maximum
Reading: higher = stronger binding
Measurement: relative binding score
Starting sequence: PYL1, truncated, DHFR fusion (Arabidopsis thaliana); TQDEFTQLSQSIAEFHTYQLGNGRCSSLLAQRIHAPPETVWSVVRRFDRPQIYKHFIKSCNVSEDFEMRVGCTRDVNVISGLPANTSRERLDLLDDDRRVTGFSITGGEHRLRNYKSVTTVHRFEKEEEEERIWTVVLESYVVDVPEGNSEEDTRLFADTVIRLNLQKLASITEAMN
S117K: 1.72%
L156T: 69.7%
L94P: -6.44%
V142T: 44.9%
R99Q: 34.4%
D92A: -0.6%
L94F: 63.7%
R90V: 34.8%
Q7N: 51.5%
T101H: -0.507%
E130V: 53.4%

Series 4
Target: RNA binding protein fox-1 homolog 2, RRM domain, GST-SBP tag (RBFOX2, Homo sapiens, UniProt O43251-10, residues 100-194)
Technique: RNA Bind-n-Seq
Molecule type: RNA
Sample: in vitro
Tested at: 365 nM
Setting: natural RNA segment, single round, ends assumed
Baseline: no-protein control
Reading: higher = stronger binding
Measurement: RBNS enrichment (R)
Target sequence (chain): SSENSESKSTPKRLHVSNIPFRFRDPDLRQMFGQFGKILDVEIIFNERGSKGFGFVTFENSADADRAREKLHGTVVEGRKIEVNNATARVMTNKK
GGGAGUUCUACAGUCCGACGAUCCCUUUUUAAUUAGAAAUUAAAACAGUUAAUUUAAUUAAAGAGUAGGGUUUUUUUUCAGUAUUCUUGGUUAAUAUUUAAUUUCAACUAUUUAUGAGAUGUAUCUUUUGCUCUGGAAUUCUCGGGUGCCAA: 0.719
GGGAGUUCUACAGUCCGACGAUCAACUCUUUCAAACCCAAAAUAUUAUUGGUGGUACAUUUUAAAGUCCAAUUGUGGACUUAAAUUAGUCAAAUUGAGAGUUACUGAGUCCAUUCAGAUCUCCAGUAGGGUUUUGGAAUUCUCGGGUGCCAA: 0.483
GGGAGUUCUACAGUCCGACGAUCUUGUUUUUCUACCUCCCGCACUUAUUUCUUGUAGAGCUUGUGGUUUCAUGAGCUGAUAAUGAAUUCUCCAAGAUGCCUAUUAGAUUUUCUUUAUAGAUGUGGUGAGUCUUUGGAAUUCUCGGGUGCCAA: 0.557
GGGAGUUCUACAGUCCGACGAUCUGCCUGGGCAUGAACAUUGUUACCGUAAAUUGCACAUGGUCAUGGACUGAAUUAUGUGACUUUAAAGGAUGUAACUGCCCAACAUUUGCAGAUUCUGGGUGGUCUAUGUGUGGAAUUCUCGGGUGCCAA: 1.56
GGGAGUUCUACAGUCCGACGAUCGUCCAGAUGUUUGCAGGUGAAUUCCUCUGCUUGACAUCCUCCCUGUCACUUUGGACCCUAUGGGAGUGGGCAUCUCCACGCACCUGUGUAUGUGAAAGUCAUUUUACAUUUGGAAUUCUCGGGUGCCAA: 0.529
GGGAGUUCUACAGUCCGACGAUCAUAGUCAAAAUCCAGCCCUCCACAGACACUCCCCAGGACCUGGGGAGGGAAGGGAUUUUGAGUCACAUUAGCCUCAGGUUAGUGUUUGGCUCCAGUAAUAUCUUGCCCGAUGGAAUUCUCGGGUGCCAA: 0.288
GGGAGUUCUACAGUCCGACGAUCACUGACCUCUAGGAGAUUCUAGUCAGGAGCCCACUAACCUGGGCCGUCAUGUUUAGAGCUGAAGGAGUCUUCAUAGCCCAGGCUGUCCUGGGUAUUGCAGGAUGCUGAUUUGGAAUUCUCGGGUGCCAA: 0.633
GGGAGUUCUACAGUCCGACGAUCAAAUGCCAUGGCCAUUGCUGACCCAUGAUUCAGCUAAGUUAAGCAGUCAUAAGGAAAGAAUUACGUGUACUUCAUAUCCCUAUAAAUUGUAAAUGCUAAAAAUGUUAAAGUGGAAUUCUCGGGUGCCAA: 0.318
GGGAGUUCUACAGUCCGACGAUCUUUUUAAAUAUUGUGAUGUUUUAAGAGCCGAUGCUGGCUUCUUUUUUGCAUGUUACAGUUUUCUGGGUUUAUUUUGCCCCCCCCCCCUUUUAUGGAAAAACAACGGAAGUUGGAAUUCUCGGGUGCCAA: 2.09
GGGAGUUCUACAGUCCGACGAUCGAAAGAGAUGGAACUAAACUCUACUAUCAGCUGCUUCAAAAACCUUUUGUCUACGGCCUGGGAAGAUGUUCUCCAGCCCCUGAGCCUAUUGGUUGGAUAGAGAGAGACUGUGGAAUUCUCGGGUGCCAA: 0.377
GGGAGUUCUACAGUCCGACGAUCUCAUUUAGUAUCUUUUUAACAGAAUUACUUGGAAUAAUGAGAUACAAUAAUCAUAUCUCUUUUGACAUUUUGGAAAUUUUUUUAAUUUUACAAGUACAUUUAACAGAUCAUGGAAUUCUCGGGUGCCAA: 0.516
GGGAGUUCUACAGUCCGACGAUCGUGUUACGUGCAGGAACGUGGAGACCCUGACGUGGGCUCACUGCGUUUGGUUUUCUUUUCAGAACUUGGGAGCCCCCAGGGAGGGGCUAGUGUUGGUAGGUCCUAGACGUUGGAAUUCUCGGGUGCCAA: 0.469

Series 5
Target: CCNB1, cyclin fold, Cln2 fusion (human)
Technique: yeast growth competition, sequencing
Sample: yeast
Setting: weak parent motif
Baseline: not given
Reading: higher = stronger binding
Measurement: normalised enrichment score
Starting sequence: CDKN1B docking peptide (human); PSACRNLFGPVDH
RSACRNLFGPVDH [P1R]: 0.817
PSACRNLFGNVDH [P10N]: 0.688
PSHCRNLFGPVDH [A3H]: 0.25
PSACRNLFGPCDH [V11C]: 0.0468
PSACRNLFGPVDY [H13Y]: 0.441
PSACRNLFGPVLH [D12L]: 0.491
PSAHRNLFGPVDH [C4H]: 0.0878
MSACRNLFGPVDH [P1M]: 0.594
PDACRNLFGPVDH [S2D]: 0.398
PSACRNLFGPVEH [D12E]: 0.197
PSYCRNLFGPVDH [A3Y]: 0.63
PSACRNLFGPYDH [V11Y]: 0.199
PSAVRNLFGPVDH [C4V]: 0.63
PSACRNLFGPTDH [V11T]: 0.263
PSACRNLCGPVDH [F8C]: -0.117
NSACRNLFGPVDH [P1N]: 0.671

A few entries again (series 3):
L156T: 69.7%
L94P: -6.44%
V142T: 44.9%
R99Q: 34.4%
D92A: -0.6%
